# Assay results pooled from the literature.
# Every numbered part comes from another study and shows a few of its results, in no order. Positions count from the first letter of the parent shown.

# Study 1 — method: universal PBM; form: double-stranded DNA, one strand shown; matrix: in vitro; tested at: not given; direction: higher = stronger binding
# Target: Sal-like protein 4, full length isoform B (SALL4, Homo sapiens, UniProt Q9UJQ4-2, residues 1-616)
# Setting: 8-mer, flanks averaged, mean of replicates
Strand,E-score
AACGTAGG,-0.162
AGAACACT,-0.0505
ACATCGAT,0.123
AGTTGGCC,-0.226
AGACTGAG,-0.147
CCTAGATA,0.161
GCAGAAGA,-0.0723
GGCATTTA,0.0283
TGCAGCAA,0.0327
AGTATAGA,0.176
CACGCGTG,-0.283
CATAACGG,0.0352
ACCTTCGG,-0.0442
GCTGGTAA,-0.00988
GCTCAACC,-0.231
ATCGAGTA,-0.0727
TACCGTGA,-0.101
AGCAGCTC,-0.29
GAGCAGGC,-0.279
GAAACACA,0.153

# Study 2 — method: RNA Bind-n-Seq; form: RNA; matrix: in vitro; tested at: 200 nM; setting: whole 134-nt RNA, ends assumed; with: 150 mM LiCl; reference: input library; direction: higher = stronger binding; each molecule: 7-deaza-guanosine replaces G
# Target: Ras GTPase-activating protein-binding protein 1, full length (G3BP1, Homo sapiens, UniProt Q13283)
# Sequence of UniProt Q13283 (whole entry, looked up): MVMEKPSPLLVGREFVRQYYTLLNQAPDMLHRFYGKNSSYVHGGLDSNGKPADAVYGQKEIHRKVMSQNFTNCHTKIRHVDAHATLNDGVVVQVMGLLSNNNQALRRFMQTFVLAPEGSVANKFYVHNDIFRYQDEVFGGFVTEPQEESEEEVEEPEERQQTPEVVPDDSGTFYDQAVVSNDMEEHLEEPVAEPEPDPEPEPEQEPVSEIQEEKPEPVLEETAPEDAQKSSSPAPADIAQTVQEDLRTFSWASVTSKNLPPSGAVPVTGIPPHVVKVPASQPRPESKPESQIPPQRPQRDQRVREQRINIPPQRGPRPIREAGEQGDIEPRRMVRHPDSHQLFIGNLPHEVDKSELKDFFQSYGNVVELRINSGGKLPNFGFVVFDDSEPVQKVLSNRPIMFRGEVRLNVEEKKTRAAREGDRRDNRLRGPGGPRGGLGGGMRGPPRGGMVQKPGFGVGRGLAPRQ
# All sequences stand within: GGGAGUUCUACAGUCCGACGAUC … UGGAAUUCUCGGGUGUCAAGG
Strand,log2 enrichment
UCAAGUCCUGUGCUACACAUCGUAUGUACCGAAUCGGUUUGGUGGUUUUUUUGGAAAGUAUUAUGUUACGCCGUUCGGAUCUGCACUUCC,0.13
CACAGACAACACGCACCCACACAGACACAAAAGGAAGGGGUUGGGAUGGGGACAGGGUGCACAGCAGGGCGGGGUAGGACCCCAGCCCCU,-0.256
GCAGGAAGUAAAAACAAAUGGAAAUGCUUCGGAUAGUGGCAGGGGCGGGGGUUGCUAAGGAAAGGGUGGGAUGGGAGUGGGUAAAGAGUU,-0.0988
UCCUGUGCUACACAUCGUAUGUACCGAAUCGGAAAAAAAGGAAAAAAAGGGAAAAAAAGGAAAGUAUUAUGUUACGCCGUUCGGAUCUGC,-0.422
CUGUGCUACACAUCGUAUGUACCGAAUCGGGCCCCCCCGGGGCCCCCCCGGCCCCCCCGGGGAAAGUAUUAUGUUACGCCGUUCGGAUCU,-0.609
AGUCCUGUGCUACACAUCGUAUGUACCGAAUCGGUUUUUGGAAAAAGGUUUUUUUGGAAAGUAUUAUGUUACGCCGUUCGGAUCUGCACU,-2.71
CACAGACAACACGCACCCACACAGACACAGAGGUAAGGGGUUGGGAUGGGGACAGGGUGCACAGCAGGGCGGGGUAGGACCCCAGCCCCU,0.295
AAGUCCUGUGCUACACAUCGUAUGUACCGAAUCGGGAAAGGGAAAAAAAGGGAGGGAAAGUAUUAUGUUACGCCGUUCGGAUCUGCACUU,0.34

# Study 3 — target: CCND2, cyclin fold, Cln2 fusion (human); method: yeast growth competition, sequencing; matrix: yeast; setting: weak parent motif; reference: not given; direction: higher = stronger binding
# Starting sequence: RBL1 docking peptide (human); GSAKRRLFGEDPP; partner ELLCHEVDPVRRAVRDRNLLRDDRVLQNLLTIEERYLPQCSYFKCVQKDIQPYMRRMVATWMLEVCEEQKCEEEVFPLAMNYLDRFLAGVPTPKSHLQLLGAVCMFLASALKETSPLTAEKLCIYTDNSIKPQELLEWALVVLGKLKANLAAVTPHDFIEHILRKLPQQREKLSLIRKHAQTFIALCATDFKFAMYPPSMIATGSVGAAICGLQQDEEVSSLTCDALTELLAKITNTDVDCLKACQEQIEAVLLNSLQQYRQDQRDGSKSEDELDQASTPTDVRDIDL
Variant,normalised enrichment score
S2I,0.0551
L7V,0.553
A3C,0.36
S2V,0.467
A3S,0.0508
F8R,-0.121
G1L,0.862
K4I,0.662
P13Q,0.0489
S2K,-0.171
D11H,0.294
R5I,-0.0192
K4Q,0.119
R5L,0.101
E10R,0.254
G9M,0.364
G9Q,0.409
S2T,0.135
F8I,0.429
R5F,0.194
P13W,0.716
F8W,-0.159
A3H,0.351
E10I,0.368
G9Y,0.194

# Study 4 — method: protein binding microarray; form: double-stranded DNA, one strand shown; matrix: in vitro; tested at: not given; reference: not given; direction: higher = stronger binding
# Target: Histone acetyltransferase KAT6A, winged helix 2, GST fusion (KAT6A, Homo sapiens, UniProt Q92794, residues 85-181)
# Setting: 8-mer, flanks averaged, mean of 2 arrays, mostly near background
# Target sequence (chain): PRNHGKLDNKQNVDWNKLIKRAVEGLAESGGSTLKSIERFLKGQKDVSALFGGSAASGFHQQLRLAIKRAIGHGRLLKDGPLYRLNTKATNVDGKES
Strand,E-score
CGCGACAA,0.117
AAACGTGG,-0.259
AGGTTTCC,0.0316
GATCGGCC,0.16
ACGTTAGC,0.0495
TAAGAAGA,0.133
ATGACACC,-0.0956
ACGTTGGA,-0.122
CACGTGCC,-0.0181
ACCGGAGA,0.0398
CGGAGGGA,0.143
CCAACAGG,-0.0868
ACACCGAT,-0.151
AACCAATT,0.067
ATTTAATG,0.163
CTATATGC,-0.0346
AGAGGCCG,-0.0277

# Study 5 — method: DHFR PCA, deep sequencing; matrix: yeast; with: (+)-ABA 0.11 µM; reference: wild-type fitted maximum; direction: higher = stronger binding
# Target: ABI1, truncated, D143A, DHFR fusion (Arabidopsis thaliana)
# Setting: methotrexate growth selection, single substitutions
# Starting sequence: PYL1, truncated, DHFR fusion (Arabidopsis thaliana); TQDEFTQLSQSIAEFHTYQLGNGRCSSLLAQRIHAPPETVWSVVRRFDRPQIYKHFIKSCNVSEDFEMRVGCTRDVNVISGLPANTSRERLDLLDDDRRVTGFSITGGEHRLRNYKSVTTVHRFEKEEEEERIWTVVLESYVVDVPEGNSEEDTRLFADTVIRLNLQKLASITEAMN; partner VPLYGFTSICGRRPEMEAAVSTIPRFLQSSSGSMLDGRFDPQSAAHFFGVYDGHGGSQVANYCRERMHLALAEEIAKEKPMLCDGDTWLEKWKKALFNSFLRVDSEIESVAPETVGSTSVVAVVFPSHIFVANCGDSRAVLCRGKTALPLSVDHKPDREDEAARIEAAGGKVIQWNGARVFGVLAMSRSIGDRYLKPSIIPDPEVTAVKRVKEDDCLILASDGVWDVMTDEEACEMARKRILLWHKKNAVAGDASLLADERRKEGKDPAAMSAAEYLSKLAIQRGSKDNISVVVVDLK
Variant,relative binding score [%]
V121K,-2.51
N149Y,25.5
E174A,3.23
T6Q,51.6
L20Y,23.2
I162N,5.26
S117G,1.61
V70W,-5.77
E67I,26.4
R49N,6.49
K126H,44.6
R163F,-19.1
L20I,39.9
Y18P,12
L112R,-5
L156S,6.87

# A few entries again (study 5):
Variant,relative binding score [%]
L20Y,23.2
V70W,-5.77
L20I,39.9
R49N,6.49
E67I,26.4
N149Y,25.5
I162N,5.26
E174A,3.23
S117G,1.61
L112R,-5
Y18P,12
T6Q,51.6
L156S,6.87
R163F,-19.1
